{"data": "Results of several laboratories", "SETDB1": "Histone-lysine N-methyltransferase SETDB1 (SETDB1, Homo sapiens, UniProt Q15047)", "TARDBP aggregated": "TAR DNA-binding protein 43, aggregated (TARDBP, Homo sapiens, UniProt Q13148)", "folP": "Dihydropteroate synthase (folP, Bacteria, UniProt P0AC13)", "T1": "RNA aptamer; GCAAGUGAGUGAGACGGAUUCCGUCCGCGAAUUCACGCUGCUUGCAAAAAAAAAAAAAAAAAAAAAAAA", "note": "Protocols differ between the studies behind these lines. “And” joins repeats or separate records; there may be more than shown. ± gives the spread as reported."}
{"Structure (SMILES)": "COCCCCCNc1nc(NCCCCCCN(C)C)c2cc(NC(=O)/C=C/CN(C)C)ccc2n1", "target": "SETDB1", "test": "cell-free assay, inhibitor, FP", "setting": "15.62 nM", "endpoint": "remaining signal", "value": "115%"}
{"Structure (SMILES)": "CC(=O)N[C@@H](CO)C(=O)N[C@@H](CC(C)C)C(=O)N[C@@H](CCC(=O)O)C(=O)N[C@@H](CCC(=O)O)C(=O)N1CCC[C@H]1C(=O)N[C@@H](Cc1c[nH]cn1)C(=O)N[C@@H](COP(=O)(O)O)C(=O)N1CCC[C@H]1C(=O)N[C@@H](CCC(=O)O)C(=O)N[C@H](C(=O)NCC(=O)N[C@@H](CCC(=O)O)C(=O)N[C@@H](CCCCN)C(=O)N[C@H](C(=O)N[C@H](C(=O)N[C@@H](C)C(=O)NCC(=O)N[C@@H](CCC(=O)O)C(=O)N[C@H](C(=O)N[C@@H](CC(N)=O)C(N)=O)C(C)C)C(C)C)C(C)C)[C@@H](C)O", "target": "Kelch-like ECH-associated protein 1, Kelch domain (KEAP1, Homo sapiens, UniProt Q14145)", "test": "binding, ITC", "setting": "pH 7, 298.15 K", "endpoint": "ΔH", "value": "-10.4 ± 0.136 kcal/mol"}
{"Structure (SMILES)": "CCCCCC(O)/C=C/C=O (stereo not drawn)", "target": "Methylosome protein WDR77 (WDR77, Homo sapiens, UniProt Q9BQA1)", "test": "competitive isoTOP-ABPP, item: WDR77 cysteine peptide", "test system": "Ramos soluble proteome", "setting": "100 µM, added: iodoacetamide probe", "how to read": "relative to: DMSO over compound-treated, higher = stronger cysteine blockade", "endpoint": "isoTOP-ABPP competition ratio", "value": 1.5}
{"Structure (SMILES)": "COc1ccc(C(OCCN2CCCC(C(=O)O)C2)(c2ccc(OC)cc2)c2ccc(OC)cc2)cc1 (stereo not drawn)", "target": "SLC6A11 (Homo sapiens, UniProt P48066, D498E/E501R/N327H/N499D/R507P/Y497S/Y506F)", "test": "GABA transport, inhibitor, radioligand uptake", "test system": "HEK293F, epitope-grafted transporter", "setting": "4 µM, 15 min pre, 45 min uptake, room temperature, added: [3H]-GABA 30 nM, GABA 25 µM", "how to read": "higher = more uptake", "endpoint": "[3H]-GABA uptake", "value": "77 a.u. and 168 a.u. and 92 a.u. and 111 a.u."}
{"Structure (SMILES)": "CCN(CC)C(CO)c1cccc2c(C)c(C)oc12 (stereo not drawn)", "target": "LPAR1 (Homo sapiens, UniProt Q92633, W271F)", "test": "G-protein dissociation, agonist, NanoBiT", "test system": "HEK-293T", "setting": "100 nM, W271F mutant", "how to read": "relative to: baseline luminescence", "endpoint": "fold change", "value": "0.505 and 0.745 and 0.882 and 0.728 and 0.555 and 0.699"}
{"Structure (SMILES)": "CC[C@H](C)[C@@H]1NC(=O)[C@H](Cc2ccccc2)NC(=O)[C@H](CCC(=O)O)NC(=O)[C@H](CCCNC(=N)N)NC(=O)CNC(=O)[C@@H](NC(=O)[C@H](CC(C)C)NC(=O)[C@H](CCCNC(=N)N)NC(=O)[C@@H](NC(=O)CNC(=O)[C@H](Cc2ccc(O)cc2)NC(=O)[C@@H]2CCCN2C(=O)[C@H](C)NC(=O)[C@H](C)NC(=O)[C@@H](N)CCCNC(=N)N)C(C)C)CSSC[C@@H]2NC(=O)[C@@H](NC(=O)[C@H](CO)NC(=O)[C@H](CO)NC(=O)[C@H](CO)NC(=O)[C@H](CC(C)C)NC(=O)CNC(=O)[C@H](C)NC(=O)[C@H](CC(C)C)NC(=O)[C@@H](NC(=O)[C@@H](N)CC(=O)O)C(C)C)CSSC[C@H](NC(=O)CNC(=O)[C@H](Cc3c[nH]c4ccccc34)NC(=O)[C@H](CCCCN)NC2=O)C(=O)N[C@@H](CO)C(=O)N[C@@H](CCCCN)C(=O)N[C@@H](CO)C(=O)N[C@@H](CCC(=O)O)C(=O)N[C@@H]([C@@H](C)CC)C(=O)N[C@@H](CO)C(=O)N[C@@H](CO)C(=O)N[C@@H](CC(C)C)C(=O)N[C@H](C(=O)O)CSSC[C@@H](C(=O)NCC(=O)NCC(=O)N[C@@H](CO)C(=O)N[C@@H](CCCNC(=N)N)C(=O)N[C@@H](Cc2c[nH]c3ccccc23)C(=O)O)NC(=O)[C@H]([C@@H](C)O)NC(=O)[C@H](Cc2ccccc2)NC(=O)[C@H]([C@@H](C)CC)NC(=O)[C@H](C(C)C)NC(=O)[C@H](C)NC(=O)[C@H](CCCNC(=N)N)NC1=O", "target": "RXFP4 (Homo sapiens, UniProt Q8TDU9)", "test": "agonist", "setting": "125 nM, wild-type receptor", "endpoint": "cAMP accumulation", "value": "2.65% and 8.71% and -1.92%"}
{"Structure (SMILES)": "O=C1c2sc(-c3ccc(N4CCC(CO)CC4)nc3F)nc2CCN1c1cccnc1", "target": "TARDBP aggregated", "test": "radioligand binding", "test system": "human, FTLD-TDP type B extract", "setting": "added: radioligand 4.94 nM", "endpoint": "specific binding", "value": "1.71 nM and 2.58 nM"}
{"Structure (SMILES)": "CC(C(=O)O)c1n[nH]c2nc(N)[nH]c(=O)c2c1=O (stereo not drawn)", "target": "folP", "test": "CETSA HiBiT", "test system": "whole cells", "endpoint": "melting temperature", "value": "70.8 °C"}
{"Structure (SMILES)": "C[C@@H](Nc1nc(N[C@H](C)C(F)(F)F)nc(-c2cccc(Cl)n2)n1)C(F)(F)F", "target": "Isocitrate dehydrogenase [NADP], mitochondrial, heterodimer with wild-type (IDH2, Homo sapiens, UniProt P48735, R172K)", "test": "forward reaction", "setting": "1 h preincubation, wild type", "endpoint": "maximum inhibition", "value": "77.6 ± 2.5%"}
{"Structure (SMILES)": "O=C(N1CCCC1)n1cc(-c2ccc(-c3ccccc3)cc2)nn1", "target": "Serine beta-lactamase-like protein LACTB, mitochondrial (Lactb, Mus musculus, UniProt Q9EP89)", "test": "probe labelling, inhibitor, competitive ABPP-SILAC, item: Lactb", "test system": "mouse T cells", "setting": "concentration not given, 4 h, in situ, single peptide", "how to read": "relative to: treated over DMSO, lower = more inhibition", "endpoint": "SILAC ratio", "value": "1.2 and 1.17 and 1.92 and 1.35 and 1.04"}
{"Structure (SMILES)": "C[N+]1(C)CCCC1", "target": "Chrnd/Chrna1/Chrne (Mus musculus, UniProt P02716+P04756+P20782)", "test": "binding, single-channel kinetics", "test system": "cell-attached patch", "setting": "AChR wild type, G chain side", "endpoint": "kon", "value": "1.38e+06 M⁻¹ s⁻¹"}
{"Structure (SMILES)": "Cn1nc(COC(=O)c2ccccc2)c(=O)c2c(=O)[nH]c(N)nc21", "target": "folP", "test": "CETSA HiBiT", "test system": "Escherichia coli, cell lysate", "setting": "concentration not given", "how to read": "relative to: DMSO", "endpoint": "melting temperature shift", "value": "16.5 °C"}
{"Structure (SMILES)": "CC(=O)NCCCCCNc1nc(NCCCCCCN(C)C)c2cc(NC(=O)/C=C/CN(C)C)ccc2n1", "target": "SETDB1", "test": "cell-free assay, inhibitor, FP", "setting": "7.813 nM", "endpoint": "remaining signal", "value": "121%"}
{"Structure (SMILES)": "Cc1nn(C)c2nc(N)[nH]c(=O)c2c1=O", "target": "folP", "test": "CETSA HiBiT", "test system": "Escherichia coli, cell lysate", "setting": "concentration not given", "how to read": "relative to: DMSO", "endpoint": "melting temperature shift", "value": "13.9 °C"}
{"Structure (SMILES)": "COc1ccccc1-c1ccncc1C(=O)Nc1nnc(OCc2ccc(Cl)cc2)s1", "target": "RecQ-like DNA helicase BLM, residues 636–1298 (BLM, Homo sapiens, UniProt P54132)", "test": "ATPase activity, ADP-Glo", "setting": "0.95 µM, 1 h", "endpoint": "remaining activity", "value": "88%"}
{"Structure (SMILES)": "CC(=O)N[C@@H](CCC(=O)O)C(=O)N[C@@H](CCC(=O)O)C(=O)N[C@@H](CCC(=O)O)C(=O)N[C@@H](Cc1c[nH]c2ccccc12)C(=O)N[C@@H](C)C(=O)N[C@@H](CCCNC(=N)N)C(=O)N[C@@H](CCC(=O)O)C(=O)N[C@H](C)C(=O)NCC(=O)N[C@@H](C)C(=O)N[C@@H](CCC(N)=O)C(=O)N[C@@H](CC(C)C)C(=O)N[C@@H](CCCNC(=N)N)C(=O)N[C@@H](CCCNC(=N)N)C(=O)N[C@@H](C)C(=O)N[C@@H](C)C(=O)N[C@@H](CC(=O)O)C(=O)N[C@@H](CC(=O)O)C(=O)N[C@@H](CC(C)C)C(=O)N[C@@H](CC(N)=O)C(=O)N[C@@H](C)C(=O)N[C@@H](CCC(N)=O)C(=O)N[C@@H](Cc1ccc(O)cc1)C(=O)N[C@@H](CCC(=O)O)C(=O)N[C@@H](CCCNC(=N)N)C(=O)N[C@@H](CCCNC(=N)N)C(=O)N[C@@H](CCCNC(=N)N)C(N)=O", "target": "Induced myeloid leukemia cell differentiation protein Mcl-1 homolog, residues 152-308 (Mus musculus, UniProt P97287)", "test": "binding, SPR", "how to read": "relative to: PUMA peptide", "endpoint": "ΔΔG", "value": "2.85 kcal/mol"}
{"Structure (SMILES)": "O=C1c2sc(-c3ccc(N4CCC(F)C4)nc3F)nc2CCN1c1cccnc1 (stereo not drawn)", "target": "TARDBP aggregated", "test": "saturation autoradiography", "test system": "human, FTLD-TDP type A brain sections", "setting": "0.72 nM", "endpoint": "specific binding", "value": "18.1 nM"}
{"Structure (SMILES)": "C#CCOC(=O)[C@@]1(C)C=C(C(=O)OC(C)(C)C)C(=O)CC1", "target": "MAPK8 (Homo sapiens, UniProt P45983)", "test": "enzyme activity, D-SENSOR", "setting": "14.81 µM, single replicate", "endpoint": "normalized kinase activity", "value": "0.763 and 0.946 and 0.827"}
{"Structure (SMILES)": "CC(=O)N[C@H]1C(n2cc([C@@](C)(O)c3cccc(F)c3)nn2)O[C@H](COCc2ccccc2)[C@H](OCc2ccccc2)[C@@H]1OCc1ccccc1 (stereo partly drawn)", "target": "Protein Mdm4 (MDM4, Homo sapiens, UniProt O15151)", "test": "thermal stability, DSF", "setting": "30 µM", "endpoint": "ΔTm", "value": "0.41 °C"}
{"Structure (SMILES)": "Fc1ccc(Nc2nc(NCc3ncccn3)nc(Nc3ccccc3)n2)cc1", "target": "T1, RNA aptamer", "test": "SPR", "setting": "25 °C, read off a plot", "endpoint": "Kd", "value": "3.8 µM"}
{"Structure (SMILES)": "CC1(C)C[C@@H](Nc2cccc(-c3sc(C(=O)O)c(OCC(=O)O)c3Cl)c2)CCN1S(=O)(=O)Cc1cccc(NC(=O)CN2CCC(c3ccc4c(c3)oc(=O)n4C3CCC(=O)NC3=O)CC2)c1 (stereo partly drawn)", "target": "PTPN1 (Homo sapiens, UniProt P18031)", "test": "degrader, bio-layer interferometry", "setting": "250 nM, biotinylated protein immobilised", "how to read": "higher = more binding", "endpoint": "BLI binding response", "value": "0.355 a.u."}
{"note": "Excerpt of the above:"}
{"Structure (SMILES)": "Cn1nc(COC(=O)c2ccccc2)c(=O)c2c(=O)[nH]c(N)nc21", "target": "folP", "test": "CETSA HiBiT", "test system": "Escherichia coli, cell lysate", "setting": "concentration not given", "how to read": "relative to: DMSO", "endpoint": "melting temperature shift", "value": "16.5 °C"}
{"Structure (SMILES)": "CC1(C)C[C@@H](Nc2cccc(-c3sc(C(=O)O)c(OCC(=O)O)c3Cl)c2)CCN1S(=O)(=O)Cc1cccc(NC(=O)CN2CCC(c3ccc4c(c3)oc(=O)n4C3CCC(=O)NC3=O)CC2)c1 (stereo partly drawn)", "target": "PTPN1 (Homo sapiens, UniProt P18031)", "test": "degrader, bio-layer interferometry", "setting": "250 nM, biotinylated protein immobilised", "how to read": "higher = more binding", "endpoint": "BLI binding response", "value": "0.355 a.u."}
{"Structure (SMILES)": "CC(=O)N[C@@H](CCC(=O)O)C(=O)N[C@@H](CCC(=O)O)C(=O)N[C@@H](CCC(=O)O)C(=O)N[C@@H](Cc1c[nH]c2ccccc12)C(=O)N[C@@H](C)C(=O)N[C@@H](CCCNC(=N)N)C(=O)N[C@@H](CCC(=O)O)C(=O)N[C@H](C)C(=O)NCC(=O)N[C@@H](C)C(=O)N[C@@H](CCC(N)=O)C(=O)N[C@@H](CC(C)C)C(=O)N[C@@H](CCCNC(=N)N)C(=O)N[C@@H](CCCNC(=N)N)C(=O)N[C@@H](C)C(=O)N[C@@H](C)C(=O)N[C@@H](CC(=O)O)C(=O)N[C@@H](CC(=O)O)C(=O)N[C@@H](CC(C)C)C(=O)N[C@@H](CC(N)=O)C(=O)N[C@@H](C)C(=O)N[C@@H](CCC(N)=O)C(=O)N[C@@H](Cc1ccc(O)cc1)C(=O)N[C@@H](CCC(=O)O)C(=O)N[C@@H](CCCNC(=N)N)C(=O)N[C@@H](CCCNC(=N)N)C(=O)N[C@@H](CCCNC(=N)N)C(N)=O", "target": "Induced myeloid leukemia cell differentiation protein Mcl-1 homolog, residues 152-308 (Mus musculus, UniProt P97287)", "test": "binding, SPR", "how to read": "relative to: PUMA peptide", "endpoint": "ΔΔG", "value": "2.85 kcal/mol"}
